Published values from different studies.
Each numbered part is a random draw from the data of one study; scales do not carry over between parts.

Block 1
Target: Replicase polyprotein 1ab, nsp13 helicase (rep, Severe acute respiratory syndrome coronavirus 2, UniProt P0DTD1)
Mode: inhibitor
Concentration: 20 µM
| SMILES | inhibition |
| --- | --- |
| COc1ccc(N(C)c2nc(C)nc3ccccc23)cc1 | 0.17% |
| CCCC(CCC)C(=O)Nc1ccn([C@@H]2O[C@H](CO)[C@@H](O)C2(F)F)c(=O)n1 | 9.41% |
| Cc1sc(C)c2c1CCC=C2c1cnc[nH]1 | 2.14% |
| C[C@H](CCC(=O)NCCS(=O)(=O)O)[C@H]1CC[C@H]2[C@@H]3[C@@H](O)C[C@@H]4C[C@H](O)CC[C@]4(C)[C@H]3CC[C@]12C | 8.27% |
| CCCC[C@@H](NC(=O)[C@@H](Cc1cn(C(=O)OC)c2ccccc12)NC(=O)[C@H](CC(C)(C)C)NC(=O)N1[C@H](C)CCC[C@@H]1C)C(=O)O | 3.55% |
| O=C(CCc1ccc(O)cc1)c1c(O)cc(O)cc1O | 0.23% |
| CC(C)N(C[C@H]1O[C@@H](n2cnc3c(N)ncnc32)[C@H](O)[C@@H]1O)[C@H]1C[C@@H](CCc2nc3cc(C(C)(C)C)ccc3[nH]2)C1 | 2.58% |
| CCC(C)(C)c1ccc(CC(C)CN2C[C@@H](C)O[C@@H](C)C2)cc1 (stereo partly drawn) | 10.3% |
| CCOc1cc(C(=O)N2CCC(N3CCN(C)CC3)CC2)ccc1Nc1ncc2c(n1)N(C1CCCC1)c1ccccc1C(=O)N2C | 5.66% |
| CCc1nn(CCCN2CCN(c3cccc(Cl)c3)CC2)c(=O)n1CCOc1ccccc1 | -0.85% |
| CNCCCC1(c2ccccc2)OC(C)(C)c2ccccc21 (stereo not drawn) | 8.88% |
| CC(=O)CC(c1ccc([N+](=O)[O-])cc1)c1c(O)c2ccccc2oc1=O (stereo not drawn) | 6.1% |
| C=C(C)[C@H]1CN[C@H](C(=O)O)[C@H]1CC(=O)O | 0.72% |
| Nc1nccc(Oc2ccc(NC(=O)c3c[nH]cc(-c4ccc(F)cc4)c3=O)cc2F)c1Cl | 4.01% |
| COc1cc2ncnc(Nc3cccc(Cl)c3F)c2cc1OC(=O)N1CCN(C)C[C@H]1C | 10.3% |
| COc1cc2c(NC3CCN(C)CC3)nc(N3CCCN(C)CC3)nc2cc1OCCOCCN(C)C | 33.3% |
| CN1C(=O)c2c(nn(Cc3ccc(-c4cccc(F)n4)cc3)c2Nc2ccccc2)N2C1=N[C@@H]1CCC[C@@H]12 | 8.29% |
| CC(C)[C@H]1CC[C@H](C(=O)N[C@H](Cc2ccccc2)C(=O)O)CC1 | 3.7% |
| CC(C)=CCC[C@](C)(O[C@@H]1O[C@H](CO)[C@@H](O)[C@H](O)[C@H]1O)[C@H]1CC[C@]2(C)[C@@H]1[C@H](O)C[C@@H]1[C@@]3(C)CC[C@H](O[C@@H]4O[C@H](CO)[C@@H](O)[C@H](O)[C@H]4O[C@@H]4O[C@H](CO)[C@@H](O)[C@H](O)[C@H]4O)C(C)(C)[C@@H]3CC[C@]12C | 4.47% |
| O=C1NS(=O)(=O)c2ccccc21 | 2.65% |
| CCC(=C(CC)c1ccc(OP(=O)(O)O)cc1)c1ccc(OP(=O)(O)O)cc1 | 2.12% |
| COc1cc2c(cc1O)CC[C@@H]1[C@@H]2CC[C@]2(C)[C@@H](O)CC[C@@H]12 | 0.97% |
| O=C(NO)c1ccc2[nH]c(=O)c(CCCc3ccccc3)nc2c1 | -4.42% |
| OCCN1CCN(CC/C=C2/c3ccccc3Sc3ccc(C(F)(F)F)cc32)CC1 | 1.99% |
| O=c1cc(-c2cccc3c2Sc2ccccc2S3)oc(N2CCOCC2)c1 | 9.94% |

Block 2
Target: Interferon regulatory factor 7, full length, phosphomimetic (IRF7, Homo sapiens, UniProt Q92985, residues 1-503, S471D/S472D/S475D/S476D/S477D/S483D/S484D/S487D)
Technique: protein-binding microarray
Form: double-stranded DNA, one strand shown
Medium: in vitro
Concentration: 2200 nM top
Setting: 60-bp whole probe
Added: salmon DNA 0.4 mg/ml
Reference: random background probes
Reading: higher = stronger binding
All sequences stand within: GCCTAGCAC … GTCTTGATTCGCTTGACGCTGCTG
Residues (chain): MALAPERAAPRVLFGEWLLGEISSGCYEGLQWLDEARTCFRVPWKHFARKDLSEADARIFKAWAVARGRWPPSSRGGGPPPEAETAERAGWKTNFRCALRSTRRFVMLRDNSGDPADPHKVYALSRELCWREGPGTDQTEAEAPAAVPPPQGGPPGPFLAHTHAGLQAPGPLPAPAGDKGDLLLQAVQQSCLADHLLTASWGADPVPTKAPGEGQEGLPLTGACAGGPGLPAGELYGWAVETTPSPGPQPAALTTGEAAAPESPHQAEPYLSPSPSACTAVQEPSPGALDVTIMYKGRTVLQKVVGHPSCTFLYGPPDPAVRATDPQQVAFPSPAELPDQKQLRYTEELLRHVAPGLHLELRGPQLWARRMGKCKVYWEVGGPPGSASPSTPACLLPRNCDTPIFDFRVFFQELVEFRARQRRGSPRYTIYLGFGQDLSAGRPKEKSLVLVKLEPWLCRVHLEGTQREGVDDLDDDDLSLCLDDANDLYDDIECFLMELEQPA
| Sequence | fitted relative affinity |
| --- | --- |
| AACGGACTGGGTTTCGGGACGTGCTAG | 1.18 z-score |
| TTAGATATCAGTCGCGATTAGTGCTAG | 0.0154 z-score |
| TCAGATTTCAGTTCCGATTAGTGCTAG | 2.43 z-score |
| TCAATGCTGGCTTTTATACTGTGCTAG | -0.154 z-score |
| GACGGACTGGACTTTCGAGACGTGCTA | 1.7 z-score |
| GACGGGTTCCTACTGCTGACGTGCTAG | 0.573 z-score |
| AGAGTGCTCATGCTTCTTAGGGTGCTA | -0.402 z-score |
| TTAGATATCAGGTTTCGATTAGTGCTA | 3.46 z-score |

Block 3
Target: Sal-like protein 4, full length isoform B (SALL4, Homo sapiens, UniProt Q9UJQ4-2, residues 1-616)
Technique: universal PBM
Form: double-stranded DNA, one strand shown
Medium: in vitro
Concentration: not given
Setting: 8-mer, flanks averaged, mean of replicates
Reading: higher = stronger binding
| Sequence | E-score |
| --- | --- |
| AATGTAAA | 0.275 |
| ACGGGAAT | 0.0849 |
| CCTCGGGA | -0.297 |
| AGGGACCC | -0.276 |
| ATTCTGCC | -0.0295 |
| CCGCTCTA | -0.0201 |
| AGCCTTGG | -0.121 |
| CGAAGGCC | -0.225 |

Block 4
Target: RING finger protein unkempt homolog, zinc fingers 1-6, GST-SBP tag (UNK, Homo sapiens, UniProt Q9C0B0, residues 30-357)
Technique: RNA Bind-n-Seq
Form: RNA
Medium: in vitro
Concentration: not given
Setting: RNA with constant flanks, human-mouse chimeric sites, ends assumed
Reference: input RNA pool
Reading: higher = stronger binding
Target sequence (chain): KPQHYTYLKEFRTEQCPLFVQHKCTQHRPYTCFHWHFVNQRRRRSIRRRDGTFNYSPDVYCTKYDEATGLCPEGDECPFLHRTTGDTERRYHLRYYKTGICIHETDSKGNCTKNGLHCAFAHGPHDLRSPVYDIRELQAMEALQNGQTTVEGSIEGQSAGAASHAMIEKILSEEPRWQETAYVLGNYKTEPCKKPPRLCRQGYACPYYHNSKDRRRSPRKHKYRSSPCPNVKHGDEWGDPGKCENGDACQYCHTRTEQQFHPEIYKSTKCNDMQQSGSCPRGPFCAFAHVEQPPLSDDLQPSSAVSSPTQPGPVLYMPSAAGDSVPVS
| Sequence | bound/input enrichment |
| --- | --- |
| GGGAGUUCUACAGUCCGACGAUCGAGCGUCUUGCCCGCACUGGGAUCAUCGUGACCACGAGUGAGGCUGUCCUCCUACAGCUGGUAGCUGACAAAGACCACCCGAAGUUCAAGGAAAUUCAGAACCUAAUUAAGGCGAGUGCCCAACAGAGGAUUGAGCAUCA | 0.152 ratio |
| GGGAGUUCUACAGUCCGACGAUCGUGCCCUCCUUCUCGCUGCGGAGCCCGCCCAGCUGGGCAUUCCGGGACUGGUACCCUGCACACAGCCGCCUCUUCGAUCAAGCUUUCGGGGUGCCCCGGUUGCCCGAUGAGUGGUCGCAGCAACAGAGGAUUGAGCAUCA | 0.0866 ratio |
| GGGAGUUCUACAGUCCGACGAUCCUCGGCACUGGUACCCUUUACAUCGCUGAGAGCCGCCUGUCCUGGUUAGAUGGUUCGGGAUUAGGAUUCUCACUGGAAUACCCCACCAUUAGUUUACAUGCGGUGUCCAGGGAUCCAAACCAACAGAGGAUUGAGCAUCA | 0.645 ratio |
| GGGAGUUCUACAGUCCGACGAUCAAAGAGAAACUAAAGCAACUAAUAGAGAAGAGGAUUGGCAAAGAGAAUUUCAUAGAGGAAACUAGGAUUAUUAGCAAACAUGAGUUAUAUUCCAGAGGCAUCUCAGAACCCCAGCCAAACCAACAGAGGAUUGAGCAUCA | 5.34 ratio |
| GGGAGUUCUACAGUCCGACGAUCCUGAGGAUACCACUGAAGAGACCUUAAAAGAAUCAUUUGAGGGCUCUGUUCGUGCAAGAAUAGUCACCUGACCGGGAACUGGUUCUUUCCAAAGGGUUGGUUUUGUAGACUUUAAUAGUGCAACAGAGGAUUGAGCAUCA | 0.613 ratio |
| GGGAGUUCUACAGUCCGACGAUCAUGCAGUAUGAGACCAACAGCUUGGACUUCAAAGUUGGGGCAGAUGGGACAGUCUUCGCCACCCGGGAGCUGCAGGUCCCCUCCGAGCAGGUGGCGUUCACGGUGACUGCAUGGGACAGCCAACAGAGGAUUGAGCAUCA | 0.153 ratio |
| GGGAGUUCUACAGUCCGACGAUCAUUGUUGAAGCGAAUCCACUUUUAGAAGCAUUUGGAAAUGCAAAGACUGUUCGCAACAAUAAUAGCAGUCGAUUUGGAAAAUUUGUAGAAAUUCAUUUUAAUGAAAAGAGUUCGGUUGUUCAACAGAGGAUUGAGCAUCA | 0.61 ratio |

Block 5
Target: Replicase polyprotein 1ab, main protease (rep, Severe acute respiratory syndrome coronavirus 2, UniProt P0DTD1)
Observed: enzyme activity
Mode: inhibitor
Concentration: 20 µM
Setting: primary screen
| SMILES | inhibition [%] |
| --- | --- |
| N[C@@H](C(=O)N[C@@H]1C(=O)N2C(C(=O)O)=C(Cl)CS[C@H]12)c1ccccc1 | 76 |
| Cc1nc(=O)c2c([nH]1)CCSC2 | 68.1 |
| COc1ccc(NC(=O)CC2Sc3ncnn3C2=O)cc1 (stereo not drawn) | 78.4 |

Block 6
Organism: Vesicular stomatitis virus
Observed: pseudovirus infection
Technique: FDA-approved drug library screen
Concentration: concentration not given
Setting: SARS-CoV-2 spike pseudotype
Reference: vehicle
| Structure (SMILES) | GFP-positive cells [%] |
| --- | --- |
| O=C(O)C(O)C(O)C(=O)O.c1cnc2cc3c(cc2n1)[C@@H]1CNC[C@H]3C1 | 81.7 |
| Nc1nc(N)c2nc(-c3ccccc3)c(N)nc2n1 | 72.2 |
| C[C@@H](Oc1cc(-c2cnn(C3CCNCC3)c2)cnc1N)c1c(Cl)ccc(F)c1Cl | 13.2 |

Some of these lines once more (block 1):
| SMILES | inhibition |
| --- | --- |
| C[C@H](CCC(=O)NCCS(=O)(=O)O)[C@H]1CC[C@H]2[C@@H]3[C@@H](O)C[C@@H]4C[C@H](O)CC[C@]4(C)[C@H]3CC[C@]12C | 8.27% |
| CCCC[C@@H](NC(=O)[C@@H](Cc1cn(C(=O)OC)c2ccccc12)NC(=O)[C@H](CC(C)(C)C)NC(=O)N1[C@H](C)CCC[C@@H]1C)C(=O)O | 3.55% |
| O=C(CCc1ccc(O)cc1)c1c(O)cc(O)cc1O | 0.23% |
| CC(C)N(C[C@H]1O[C@@H](n2cnc3c(N)ncnc32)[C@H](O)[C@@H]1O)[C@H]1C[C@@H](CCc2nc3cc(C(C)(C)C)ccc3[nH]2)C1 | 2.58% |
| CCC(C)(C)c1ccc(CC(C)CN2C[C@@H](C)O[C@@H](C)C2)cc1 (stereo partly drawn) | 10.3% |
| CCOc1cc(C(=O)N2CCC(N3CCN(C)CC3)CC2)ccc1Nc1ncc2c(n1)N(C1CCCC1)c1ccccc1C(=O)N2C | 5.66% |
| CCc1nn(CCCN2CCN(c3cccc(Cl)c3)CC2)c(=O)n1CCOc1ccccc1 | -0.85% |
| CNCCCC1(c2ccccc2)OC(C)(C)c2ccccc21 (stereo not drawn) | 8.88% |
